Experimental data pooled from the literature.
Each numbered part is a random draw from the data of one study; scales do not carry over between parts.

Study 1
Target: Sal-like protein 4, full length isoform A (SALL4, Homo sapiens, UniProt Q9UJQ4, residues 1-1053)
Sequence of UniProt Q9UJQ4 (whole entry, looked up): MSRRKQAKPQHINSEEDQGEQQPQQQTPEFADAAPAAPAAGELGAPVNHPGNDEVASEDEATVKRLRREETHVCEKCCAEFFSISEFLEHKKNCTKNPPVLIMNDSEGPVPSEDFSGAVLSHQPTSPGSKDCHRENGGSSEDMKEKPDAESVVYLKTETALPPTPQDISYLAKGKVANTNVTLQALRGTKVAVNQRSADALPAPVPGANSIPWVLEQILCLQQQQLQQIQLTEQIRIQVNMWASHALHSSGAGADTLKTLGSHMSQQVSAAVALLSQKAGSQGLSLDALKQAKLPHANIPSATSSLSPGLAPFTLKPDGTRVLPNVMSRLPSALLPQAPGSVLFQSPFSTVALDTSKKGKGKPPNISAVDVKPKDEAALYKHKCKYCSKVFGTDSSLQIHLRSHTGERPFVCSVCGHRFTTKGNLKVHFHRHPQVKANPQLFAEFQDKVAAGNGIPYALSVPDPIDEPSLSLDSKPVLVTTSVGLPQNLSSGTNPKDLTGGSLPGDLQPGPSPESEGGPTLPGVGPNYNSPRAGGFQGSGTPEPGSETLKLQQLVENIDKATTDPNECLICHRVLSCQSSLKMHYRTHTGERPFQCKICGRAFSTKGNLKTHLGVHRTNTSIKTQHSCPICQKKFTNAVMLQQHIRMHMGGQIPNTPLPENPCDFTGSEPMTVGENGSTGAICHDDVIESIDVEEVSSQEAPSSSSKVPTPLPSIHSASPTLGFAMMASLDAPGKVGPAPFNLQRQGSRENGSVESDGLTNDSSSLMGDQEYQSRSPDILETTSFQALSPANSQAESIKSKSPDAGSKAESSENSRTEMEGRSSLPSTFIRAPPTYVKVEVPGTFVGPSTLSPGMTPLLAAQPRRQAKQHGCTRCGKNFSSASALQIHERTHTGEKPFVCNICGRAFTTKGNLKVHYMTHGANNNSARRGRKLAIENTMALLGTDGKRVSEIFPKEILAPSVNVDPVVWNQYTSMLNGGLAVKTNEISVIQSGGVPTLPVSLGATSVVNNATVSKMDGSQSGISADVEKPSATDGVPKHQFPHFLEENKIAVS
Method: universal PBM
Molecule type: double-stranded DNA, one strand shown
Sample: in vitro
Concentration: 600 nM
Setting: 8-mer, flanks averaged, mean of replicates
Reading: higher = stronger binding
With `CCAAGCCA` the E-score was -0.123.
With `CGGGTAAG` the E-score was -0.251.
`ATTCGGAG` gave an E-score of -0.0677.
With `TTTTAAAA` the E-score was 0.32.
`AGCAATAA` gave an E-score of 0.294.
For `CACATCAG`, the E-score was -0.0267.
`AGGCATAT` gave an E-score of 0.242.
For `CCGTGTTA`, the E-score was -0.0906.

Study 2
Species: human
Sample: microsomes or S9
Concentration: 2 µM
Time: 0.5 h
With `CC(C)N1/C(=C/C2=Cc3ccccc3OC2)C(=O)c2ccccc2S1(=O)=O` the remaining compound was 3.15%.
`CN(c1ccccc1)c1ccc2oc(-c3cc(-c4cnn(C5CCNCC5)c4)cnc3N)nc2c1` gave a remaining compound of under 1%.
With `Cc1noc(C)c1Cc1c(C(=O)N2CCC(Cc3nc(C4CCOCC4)no3)CC2)noc1C` the remaining compound was 1.36%.
With `COc1ccccc1Nc1ccc(-n2ccnc2-c2ccncc2)cc1` the remaining compound was 72.6%.

Study 3
Target: Alpha-2A adrenergic receptor (ADRA2A, Homo sapiens, UniProt P08913)
Sequence of UniProt P08913 (whole entry, looked up): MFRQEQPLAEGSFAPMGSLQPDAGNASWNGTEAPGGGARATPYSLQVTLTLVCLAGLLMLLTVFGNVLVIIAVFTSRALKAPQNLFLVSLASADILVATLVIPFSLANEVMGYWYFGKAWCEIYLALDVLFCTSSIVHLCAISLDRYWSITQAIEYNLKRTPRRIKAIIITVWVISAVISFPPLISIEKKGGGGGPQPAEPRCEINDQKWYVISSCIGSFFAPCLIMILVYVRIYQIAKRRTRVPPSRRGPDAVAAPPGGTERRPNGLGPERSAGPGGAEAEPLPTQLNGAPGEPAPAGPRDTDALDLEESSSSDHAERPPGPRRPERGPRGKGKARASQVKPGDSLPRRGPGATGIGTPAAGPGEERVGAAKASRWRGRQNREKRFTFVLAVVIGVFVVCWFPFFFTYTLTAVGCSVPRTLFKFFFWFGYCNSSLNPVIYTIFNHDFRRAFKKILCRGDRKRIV
Read-out: ligand displacement
Concentration: 10 µM
`Nc1nc(NCc2ccccc2)nc(-c2cccc(CO)c2)n1` gave an inhibition of 7.24%.
`CN(C)c1ncnc(-c2ccc3nc(Nc4cc(CN5CCN(C(=O)CC(F)(F)F)CC5)ccn4)[nH]c3c2)c1Cl` gave an inhibition of 15.7%.
`O=C(NS(=O)(=O)c1ccc(NCC2CCOCC2)c([N+](=O)[O-])c1)c1ccc(N2CCN(Cc3ccc(C(F)(F)F)cc3-c3ccc(Cl)cc3)CC2)cc1Oc1cnc2[nH]ccc2c1` has an inhibition of 9.67%.
For `CS(=O)(=O)N1CCCC(NC(=O)[C@H](CCC2CCCCC2)NC(=O)c2ccc(CNC(=O)c3cnc4ccccn34)cc2)C1` (stereo partly drawn), the inhibition was 7.22%.
The inhibition of `O=C(N[C@H]1CCCCC/C=C\C2C[C@@]2(C(=O)O)NC(=O)[C@@H]2C[C@@H](Oc3ccncc3)CN2C1=O)OC1CCCC1` (stereo partly drawn) is reported as 0.78%.
For `CC1CCN(c2ccnc(NCc3cn(C)cn3)n2)CC1`, the inhibition was 12.8%.
With `C[C@H](c1ccnc(Nc2nc3ccc(-c4cc(N(C)C)ncn4)cc3[nH]2)c1)N1CCN(C(=O)CC(F)(F)F)CC1` the inhibition was 24.2%.
For `CC(=O)Nc1ncc(CN2CCC[C@H](Cc3cc(C)nc(C)c3)C2)s1`, the inhibition was 8.68%.
`COc1ccc2cc(OCC3(C(=O)O)CN(C(=O)c4ccc(F)cc4)C3)ccc2c1` has an inhibition of 21.8%.

Study 4
Structure (SMILES): CC(C)n1cnc(-c2ccc(F)cc2)c1-c1ncc(C(=O)Nc2ccc(N3CCN(C)CC3)cc2)[nH]1
Method: phase 2a clinical trial
Species: patients with idiopathic pulmonary fibrosis
Dose: dose not given
For measured: hepatic function abnormal; Grade 4, all drug arms total: “patients with treatment-emergent adverse events” read 0%.
It gave 0% for “patients with treatment-emergent adverse events” (measured: benign prostatic hyperplasia; Grade 4, maximum intensity, all drug arms total).
For measured: gastro-oesophageal reflux disease; Grade 5, all drug arms total: “patients with treatment-emergent adverse events” read 0%.

Excerpt of the above (study 3):
For `CC1CCN(c2ccnc(NCc3cn(C)cn3)n2)CC1`, the inhibition was 12.8%.
`COc1ccc2cc(OCC3(C(=O)O)CN(C(=O)c4ccc(F)cc4)C3)ccc2c1` has an inhibition of 21.8%.
For `CS(=O)(=O)N1CCCC(NC(=O)[C@H](CCC2CCCCC2)NC(=O)c2ccc(CNC(=O)c3cnc4ccccn34)cc2)C1` (stereo partly drawn), the inhibition was 7.22%.
